Earlier results that unrelated publications cite.
Protocols differ between the studies behind these lines. ± marks the error that the study gave.
rib4: 6,7-dimethyl-8-ribityllumazine synthase (rib4, Schizosaccharomyces pombe, UniProt Q9UUB1)
gag-pol protease: Gag-Pol polyprotein, protease (gag-pol, Human immunodeficiency virus type 1 group M subtype B, UniProt P04585)

O=C(/C=C/c1ccsc1)c1cc2ccccc2oc1=O — Ki (adenosine A3 receptor (human)): 5200 nM
COc1ccc(C2(CNC(=O)[C@](C)(Cc3c[nH]c4ccccc34)NC(=O)Nc3ccc([N+](=O)[O-])cc3)CCCCC2)nc1 — Ki (gastrin-releasing peptide receptor; binding): 1 nM
Nc1c(SC[C@H](O)[C@H](O)[C@H](O)CO)[nH]c(=O)[nH]c1=O — Ki (rib4; inhibitor; pH 7.0): 160 ± 10 nM
COCCNC(=O)C(NC(=O)C(O)(Cc1ccccc1)CN(Cc1ccc(Br)cc1)NC(=O)C(NC(=O)OC)C(C)(C)C)C(C)C (stereo not drawn) — Ki (gag-pol protease; inhibitor): 5.1 nM
COCCOc1cc2ncnc(Nc3cccc(-c4cn(-c5ccccc5S(N)(=O)=O)nn4)c3)c2cc1OCCOC — Ki (Helicobacter pylori alpha-carbonic anhydrase; inhibitor, stopped-flow CO2 hydration): 252 nM
O=C(CN(Cc1ccccc1)Cc1ccccc1)NO — Ki (Meprin A subunit alpha (MEP1A, Homo sapiens, UniProt Q16819); inhibitor): 7870 nM
O=c1[nH]cnc2c(CN[C@@H](CO)CCP(=O)(O)O)c[nH]c12 — Ki (Plasmodium falciparum HGXPRT; inhibitor): 23 ± 2 nM
CCc1c(Cl)cccc1N1CCN(C[C@@H](F)CCNC(=O)c2cc3ccccc3[nH]2)CC1 — Ki (dopamine D3 receptor; binding): 0.84 ± 0.16 nM
CCOC(=O)C(=O)Nc1c(NC[C@H](O)[C@H](O)[C@H](O)CO)[nH]c(=O)[nH]c1=O — Ki (rib4; inhibitor; pH 7.0): 1100 ± 200 nM
C[C@H]1CN(C(=O)c2nc(Nc3cc(C4CC4)[nH]n3)c3cc(Cl)ccc3n2)CCN1 — Ki (Serine/threonine-protein kinase PAK 4 (PAK4, Homo sapiens, UniProt O96013)): 9 nM
CNC(=O)C(NC(=O)C(O)(Cc1ccccc1)CN(Cc1ccc(Br)cc1)NC(=O)C(NC(=O)OC)C(C)(C)C)C(C)(C)C (stereo not drawn) — Ki (gag-pol protease; inhibitor): 180 nM
c1cc2c(cc1OCCCN1CCCCC1)CN1CCCC1=N2 — Ki (histamine H3 receptor (human); binding): 76.2 nM
COCCOc1cc2ncnc(Nc3cccc(-c4cn(-c5cccc(S(N)(=O)=O)c5)nn4)c3)c2cc1OCCOC — Ki (Helicobacter pylori alpha-carbonic anhydrase; inhibitor, stopped-flow CO2 hydration): 70.1 nM
O=C1/C(=C/c2cccc(Br)c2)Cc2c(O)cccc21 — Ki (Adenosine receptor A2a (Adora2a, Rattus norvegicus, UniProt P30543)): 1000 nM
CN(C)c1ccc(-c2cc3cc(I)ccc3o2)cn1 — Ki (amyloid-β aggregates; binding): 2.36 nM
COCCOc1cc2ncnc(Nc3cccc(-c4cn([C@H]5C[C@H](n6cc(C)c(=O)[nH]c6=O)O[C@@H]5CO)nn4)c3)c2cc1OCCOC — Ki (Helicobacter pylori alpha-carbonic anhydrase; inhibitor, stopped-flow CO2 hydration): 19.3 nM
CCC(=O)NCCNC(=O)N=C(N)NCCC[C@@H](NC(=O)C(c1ccccc1)c1ccccc1)C(=O)NCc1ccc(O)cc1 — Ki (NPFF1R; binding): 1000 nM
NS(=O)(=O)c1ccc(CCNC(=O)CSc2nc3ccc(I)cc3c(=O)n2Cc2ccccc2)cc1 — Ki (carbonic anhydrase II, human): 3.3 to 35 nM
COc1cc2c(cc1OC)CN(CCCCn1ccc3cc(OCCF)ccc31)C2 — Ki (Sigma intracellular receptor 2 (Tmem97, Rattus norvegicus, UniProt Q5U3Y7); binding): 3.27 ± 0.19 nM
CC[C@H](C)[C@H](NC(=O)[C@H](CC(=O)O)NC(=O)[C@H](CC(C)C)NC(=O)[C@H](CC(C)C)NC(=O)[C@H](CCCCN)NC(=O)[C@H](CCCNC(=N)N)NC(=O)[C@H](CC(N)=O)NC(=O)[C@H](CO)NC(=O)[C@H](Cc1c[nH]cn1)NC(=O)[C@H](C)NC(=O)[C@H](CCC(N)=O)NC(=O)[C@H](CCC(N)=O)NC(=O)[C@H](C)NC(=O)[C@H](CC(C)C)NC(=O)[C@H](CCC(N)=O)NC(=O)[C@H](CC(=O)O)NC(=O)[C@H](C)NC(=O)[C@H](CCCCN)NC(=O)[C@@H](NC(=O)[C@H](CCSC)NC(=O)[C@H](CCC(=O)O)NC(=O)[C@H](CC(C)C)NC(=O)[C@@H](NC(=O)[C@H](CCC(=O)O)NC(=O)[C@H](CCCNC(=N)N)NC(=O)[C@H](CC(C)C)NC(=O)[C@H](CC(C)C)NC(=O)[C@H](Cc1c[nH]cn1)NC(=O)[C@H](Cc1ccccc1)NC(=O)[C@@H](NC(=O)[C@H](CC(C)C)NC(=O)[C@H](CC(=O)O)NC(=O)[C@H](CC(C)C)NC(=O)[C@H](CO)NC(=O)[C@@H](NC(=O)[C@@H]1CCCN1C(=O)[C@@H]1CCCN1C(=O)[C@H](CCC(=O)O)NC(=O)[C@H](CCC(N)=O)NC(=O)[C@@H](N)CO)[C@@H](C)CC)[C@@H](C)O)C(C)C)[C@@H](C)O)C(=O)N[C@@H](C)C(N)=O — Ki (human CRF1 receptor (cloned)): ~6 nM
C=CCC(=N)NCCC[C@H](N)C(=O)O — Ki (rat nNOS): 100 nM
C=CC(=O)N1CCC[C@@H](n2nc(-c3ccc4ccccc4c3)c3c(N)ncnc32)C1 — Ki (Epidermal growth factor receptor (EGFR, Homo sapiens, UniProt P00533, L858R/T790M)): 1.5 ± 0.8 nM
O=c1[nH]cnc2c(CNCC(O)CP(=O)(O)O)c[nH]c12 (racemic) — Ki (Trypanosoma cruzi HGPRT; inhibitor): 170 ± 20 nM
Cc1cc(N)nc(CC2CNCC2OCCNCC(F)(F)c2cccc(F)c2)c1 (racemic) — Ki (Nitric oxide synthase 1 (Nos1, Rattus norvegicus, UniProt P29476); racemic mixture): 80 nM
Nc1nc2c([C@@H]3N[C@H](COP(=O)(O)O)[C@@H](O)[C@H]3O)c[nH]c2c(=O)[nH]1 — Ki (Trypanosoma cruzi HGPRT; inhibitor): 1100 ± 400 nM
NS(=O)(=O)c1ccc(CCn2c(SCC(=O)N/N=C/c3ccccc3)nc3ccccc3c2=O)cc1 — Ki (Carbonic anhydrase 1 (CA1, Homo sapiens, UniProt P00915); enzyme activity, inhibitor): 152 nM
COc1cc2c(cc1OC)CN(CCCCn1ccc3c(OCCF)cccc31)CC2 — Ki (Sigma non-opioid intracellular receptor 1 (SIGMAR1, Homo sapiens, UniProt Q99720); binding): 1700 ± 548 nM
C/C(=N\NC(=O)CSc1nc2ccccc2c(=O)n1CCc1ccc(S(N)(=O)=O)cc1)c1ccccc1 — Ki (Carbonic anhydrase 9 (CA9, Homo sapiens, UniProt Q16790)): 55.7 nM
CC(C)[C@H](NC(=O)[C@@H]1CCCN1C(=O)[C@@H](N)CCCCN)C(=O)N[C@@H](CCC(=O)O)C(=O)N[C@H](CN[C@@H](CCCNC(=N)N)C(=O)N[C@@H](CCC(N)=O)C(=O)N[C@H](C(=O)O)[C@@H](C)O)Cc1ccccc1 — Ki (Cathepsin D (CTSD, Homo sapiens, UniProt P07339); enzyme activity, inhibitor): 30 ± 2 nM
O=S(=O)(NCB(O)O)c1ccc(-c2nnn[nH]2)cc1C(F)(F)F — Ki (ADC-7 beta-lactamase; inhibitor): 0.45 nM
O=c1[nH]c(SC[C@H](O)[C@H](O)[C@H](O)CO)c([N+](=O)[O-])c(=O)[nH]1 — Ki (Bacillus subtilis lumazine synthase; inhibitor; recombinant β60 capsid; pH 7.0, Tris·HCl buffer, with: 2 constant, 1 varied): 26000 ± 3000 nM
COc1cc2c(cc1OC)[C@@H]1C[C@@H](O)[C@@H](CC(C)C)CN1CC2 — Ki (5-HT7 receptor; binding): 1.9 ng/mL
C[C@@H]1COCCN1c1nc(-c2cnc(N)nc2)nc2c1C[C@@H]1COCCN21 — Ki (Serine/threonine-protein kinase mTOR (MTOR, Homo sapiens, UniProt P42345); binding, TR-FRET displacement): 5.1 ± 0.4 nM
COc1cc2nc(SC(C)C(=O)NCCc3ccc(S(N)(=O)=O)cc3)n(Cc3ccccc3)c(=O)c2cc1OC (stereo not drawn) — Ki (carbonic anhydrase II, human): 3.3 to 35 nM
CN(Cc1c[nH]c2c(=O)[nH]cnc12)[C@H](CO)CCP(=O)(O)O — Ki (Trypanosoma cruzi HGPRT; inhibitor): 1400 ± 30 nM
NS(=O)(=O)c1ccc(Nc2nc(-c3cc4cc(Cl)ccc4oc3=O)cs2)cc1 — Ki (carbonic anhydrase IX (human); enzyme activity, inhibitor): 25 nM
CC(=C(C#N)C#N)c1ccc2cc(N(C)CCF)ccc2c1 — Ki (amyloid beta fibrils; binding; in vitro generated fibrils): 42 nM
CCn1nc(Cc2ccccc2)cc1C1CCN(C[C@H]2C[C@H](N(C)C(C(=O)O)C(C)C)C[C@@H]2c2cccc(F)c2)CC1 (stereo partly drawn) — Ki (C-C chemokine receptor type 5 (Macaca mulatta, UniProt P61813); biochemical): 1 nM
CC(C)(C)[C@H](NC(=O)[C@H](CCONC(=N)N)NC(=O)Cc1ccc(CNC(=N)N)cc1)C(=O)N[C@@H](CCONC(=N)N)C(=O)NCc1ccc(C(=N)N)cc1 — Ki (furin): 0.0101 nM

Some of these lines once more:
Nc1nc2c([C@@H]3N[C@H](COP(=O)(O)O)[C@@H](O)[C@H]3O)c[nH]c2c(=O)[nH]1 — Ki (Trypanosoma cruzi HGPRT; inhibitor): 1100 ± 400 nM
CCc1c(Cl)cccc1N1CCN(C[C@@H](F)CCNC(=O)c2cc3ccccc3[nH]2)CC1 — Ki (dopamine D3 receptor; binding): 0.84 ± 0.16 nM
CC[C@H](C)[C@H](NC(=O)[C@H](CC(=O)O)NC(=O)[C@H](CC(C)C)NC(=O)[C@H](CC(C)C)NC(=O)[C@H](CCCCN)NC(=O)[C@H](CCCNC(=N)N)NC(=O)[C@H](CC(N)=O)NC(=O)[C@H](CO)NC(=O)[C@H](Cc1c[nH]cn1)NC(=O)[C@H](C)NC(=O)[C@H](CCC(N)=O)NC(=O)[C@H](CCC(N)=O)NC(=O)[C@H](C)NC(=O)[C@H](CC(C)C)NC(=O)[C@H](CCC(N)=O)NC(=O)[C@H](CC(=O)O)NC(=O)[C@H](C)NC(=O)[C@H](CCCCN)NC(=O)[C@@H](NC(=O)[C@H](CCSC)NC(=O)[C@H](CCC(=O)O)NC(=O)[C@H](CC(C)C)NC(=O)[C@@H](NC(=O)[C@H](CCC(=O)O)NC(=O)[C@H](CCCNC(=N)N)NC(=O)[C@H](CC(C)C)NC(=O)[C@H](CC(C)C)NC(=O)[C@H](Cc1c[nH]cn1)NC(=O)[C@H](Cc1ccccc1)NC(=O)[C@@H](NC(=O)[C@H](CC(C)C)NC(=O)[C@H](CC(=O)O)NC(=O)[C@H](CC(C)C)NC(=O)[C@H](CO)NC(=O)[C@@H](NC(=O)[C@@H]1CCCN1C(=O)[C@@H]1CCCN1C(=O)[C@H](CCC(=O)O)NC(=O)[C@H](CCC(N)=O)NC(=O)[C@@H](N)CO)[C@@H](C)CC)[C@@H](C)O)C(C)C)[C@@H](C)O)C(=O)N[C@@H](C)C(N)=O — Ki (human CRF1 receptor (cloned)): ~6 nM
O=S(=O)(NCB(O)O)c1ccc(-c2nnn[nH]2)cc1C(F)(F)F — Ki (ADC-7 beta-lactamase; inhibitor): 0.45 nM
O=c1[nH]cnc2c(CNCC(O)CP(=O)(O)O)c[nH]c12 (racemic) — Ki (Trypanosoma cruzi HGPRT; inhibitor): 170 ± 20 nM
C=CCC(=N)NCCC[C@H](N)C(=O)O — Ki (rat nNOS): 100 nM
